Measurements collected from several papers.
Protocols differ between the studies behind these lines. ± marks the error that the study gave.
Method: steady-state kinetics
B1: protein (Allochromatium vinosum, UniProt P45370); chain MFPIDIRPDKLTQEMLDYSRKLGQGMENLLNAEAIDTGVSPKQAVYSEDKLVLYRYDRPEGAPEAQPVPLLIVYALVNRPYMTDIQEDRSTIKGLLATGQDVYLIDWGYPDQADRALTLDDYINGYIDRCVDYLREAHGVDKVNLLGICQGGAFSLMYSALHPDKVRNLVTMVTPVDFKTPDNLLSAWVQNVDIDLAVDTMGNIPGELLNWTFLSLKPFSLTGQKYVNMVDLLDDPDKVKNFLRMEKWIFDSPDQAGETFRQFIKDFYQNNGFLNGGVVLGGQEVDLKDITCPVLNIFALQDHLVPPDASRALKGLTSSPDYTELAFPGGHIGIYVSGKAQKEVTPAIGKWLNER
B2: protein Y93P (Thermus thermophilus, UniProt Q5SKR5); chain MSAPKPFVIGIAGGTASGKTTLAQALARTLGERVALLPMDHYYKDLGHLPLEERLRVNYDHPDAFDLALYLEHAQALLRGLPVEMPVYDFRAPTRSPRRTPVRPAPVVILEGILVLYPKELRDLMDLKVFVDADADERFIRRLKRDVLERGRSLEGVVAQYLEQVKPMHLHFVEPTKRYADVIVPRGGQNPVALEMLAAKALARLARMGAA
B3: cyc1 (Streptomyces coelicolor, UniProt Q9K499); chain MHAFPHGTTATPTAIAVPPSLRLPVIEAAFPRQLHPYWPKLQETTRTWLLEKRLMPADKVEEYADGLCYTDLMAGYYLGAPDEVLQAIADYSAWFFVWDDRHDRDIVHGRAGAWRRLRGLLHTALDSPGDHLHHEDTLVAGFADSVRRLYAFLPATWNARFARHFHTVIEAYDREFHNRTRGIVPGVEEYLELRRLTFAHWIWTDLLEPSSGCELPDAVRKHPAYRRAALLSQEFAAWYNDLCSLPKEIAGDEVHNLGISLITHHSLTLEEAIGEVRRRVEECITEFLAVERDALRFADELADGTVRGKELSGAVRANVGNMRNWFSSVYWFHHESGRYMVDSWDDRSTPPYVNNEAAGEK
B4: POLH (Homo sapiens, UniProt Q9Y253); chain MATGQDRVVALVDMDCFFVQVEQRQNPHLRNKPCAVVQYKSWKGGGIIAVSYEARAFGVTRSMWADDAKKLCPDLLLAQVRESRGKANLTKYREASVEVMEIMSRFAVIERASIDEAYVDLTSAVQERLQKLQGQPISADLLPSTYIEGLPQGPTTAEETVQKEGMRKQGLFQWLDSLQIDNLTSPDLQLTVGAVIVEEMRAAIERETGFQCSAGISHNKVLAKLACGLNKPNRQTLVSHGSVPQLFSQMPIRKIRSLGGKLGASVIEILGIEYMGELTQFTESQLQSHFGEKNGSWLYAMCRGIEHDPVKPRQLPKTIGCSKNFPGKTALATREQVQWWLLQLAQELEERLTKDRNDNDRVATQLVVSIRVQGDKRLSSLRRCCALTRYDAHKMSHDAFTVIKNCNTSGIQTEWSPPLTMLFLCATKFSASAPSSSTDITSFLSSDPSSLPKVPVTSSEAKTQGSGPAVTATKKATTSLESFFQKAAERQKVKEASLSSLTAPTQAPMSNSPSKPSLPFQTSQSTGTEPFFKQKSLLLKQKQLNNSSVSSPQQNPWSNCKALPNSLPTEYPGCVPVCEGVSKLEESSKATPAEMDLAHNSQSMHASSASKSVLEVTQKATPNPSLLAAEDQVPCEKCGSLVPVWDMPEHMDYHFALELQKSFLQPHSSNPQVVSAVSHQGKRNPKSPLACTNKRPRPEGMQTLESFFKPLTH
B5: Tcur_2987 W263F (Thermomonospora curvata, UniProt D1A807); chain ACSEERAAGARPSATQTTGTATEPFHGPHQAGIATPPQAHAVFLGLDLRKGTGRKELGRLMRLLTDDARRLTQGRPALADPEPDLAPLPSRLTFTFGFGPGLFKAAGLEKQRPEGLRPLPPFKVDRLEDRWSGGDLLVQICCDDPITLAHALRMTVKDARAFTRVRWVQRGFRRSPGVQSSGATQRNLMGQLDGTVNPVPGTADFDQAVWVQDGPEWLRGGTTLVLRRIRMELEKFDEADPAGKEFAVGRRLTSGAPLTGRHEHDEPDFDAVDSAGFPVIAENAHIRLAHVDSPRLRMLRRPYNYDEGLTADGRSDAGLLFAAYQADIDRQFIPVQRRLDEGGDLLNLWTTPIGSAVFAIPPGCDENGWIGQGLLG
B6: BshA Y95F (Bacillus subtilis, UniProt P42982); chain MRKLKIGITCYPSVGGSGIIATELGKQLAEKGHEIHFITSSIPFRLNTYHPNIHFHEVEVNQYAVFKYPPYDLTLASKIAEVAERENLDIIHAHFALPHAVCAYLAKQMLKRNIGIVTTLHGTDITVLGYDPSLKDLIRFAIESSDRVTAVSSALAAETYDLIKPEKKIETIYNFIDERVYLKKNTAAIKEKHGILPDEKVVIHVSNFRKVKRVQDVIRVFRNIAGKTKAKLLLVGDGPEKSTACELIRKYGLEDQVLMLGNQDRVEDLYSISDLKLLLSEKESFGLVLLEAMACGVPCIGTNIGGIPEVIKNNVSGFLVDVGDVTAATARAMSILEDEQLSNRFTKAAIEMLENEFSSKKIVSQYEQIYADLAEPE
Chain of UniProt P07379 (whole entry, looked up): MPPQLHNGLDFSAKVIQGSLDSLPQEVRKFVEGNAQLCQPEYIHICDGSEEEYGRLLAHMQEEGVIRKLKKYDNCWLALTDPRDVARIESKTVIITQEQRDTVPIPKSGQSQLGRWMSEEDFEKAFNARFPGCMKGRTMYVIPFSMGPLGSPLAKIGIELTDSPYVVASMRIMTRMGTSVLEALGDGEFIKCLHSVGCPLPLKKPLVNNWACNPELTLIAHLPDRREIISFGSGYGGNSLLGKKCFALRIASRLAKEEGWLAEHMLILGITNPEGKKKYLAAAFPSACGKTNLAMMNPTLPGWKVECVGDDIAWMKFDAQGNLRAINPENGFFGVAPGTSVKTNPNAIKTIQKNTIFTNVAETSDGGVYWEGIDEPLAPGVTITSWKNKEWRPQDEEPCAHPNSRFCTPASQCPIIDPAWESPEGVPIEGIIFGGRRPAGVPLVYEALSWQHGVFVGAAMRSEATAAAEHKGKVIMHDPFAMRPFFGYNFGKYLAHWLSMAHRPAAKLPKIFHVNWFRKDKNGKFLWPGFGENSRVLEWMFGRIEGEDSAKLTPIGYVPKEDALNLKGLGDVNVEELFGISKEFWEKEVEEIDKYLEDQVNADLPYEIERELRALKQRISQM
Chain of UniProt P07914 (whole entry, looked up): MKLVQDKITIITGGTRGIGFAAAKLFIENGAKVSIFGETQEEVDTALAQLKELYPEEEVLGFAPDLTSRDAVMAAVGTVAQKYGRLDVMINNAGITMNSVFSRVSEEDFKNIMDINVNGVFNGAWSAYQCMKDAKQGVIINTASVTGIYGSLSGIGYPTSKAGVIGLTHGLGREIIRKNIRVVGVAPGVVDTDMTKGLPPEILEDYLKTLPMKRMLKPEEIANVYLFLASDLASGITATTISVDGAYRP
Chain of UniProt A8NCK5 (whole entry, looked up): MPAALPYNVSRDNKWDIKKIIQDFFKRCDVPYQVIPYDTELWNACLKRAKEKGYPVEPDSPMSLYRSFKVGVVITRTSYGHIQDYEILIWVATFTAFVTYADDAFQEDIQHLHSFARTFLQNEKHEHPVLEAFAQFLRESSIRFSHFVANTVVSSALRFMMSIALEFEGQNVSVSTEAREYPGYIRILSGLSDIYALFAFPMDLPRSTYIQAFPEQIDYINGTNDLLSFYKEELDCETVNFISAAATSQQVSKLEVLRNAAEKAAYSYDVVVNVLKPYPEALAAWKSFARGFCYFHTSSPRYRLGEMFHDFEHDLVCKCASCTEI
Chain of UniProt Q7L266 (whole entry, looked up): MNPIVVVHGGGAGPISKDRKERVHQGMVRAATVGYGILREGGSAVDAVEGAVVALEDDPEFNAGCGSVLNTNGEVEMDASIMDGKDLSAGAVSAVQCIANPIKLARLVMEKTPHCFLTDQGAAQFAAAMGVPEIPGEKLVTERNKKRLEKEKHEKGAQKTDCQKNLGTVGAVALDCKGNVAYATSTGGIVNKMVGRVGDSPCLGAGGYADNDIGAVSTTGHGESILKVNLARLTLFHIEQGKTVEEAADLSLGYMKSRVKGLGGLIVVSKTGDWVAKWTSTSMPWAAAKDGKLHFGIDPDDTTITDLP

Ptb (Listeria monocytogenes, UniProt Q8Y7B7)
kcat/Km (CC(=O)SCCNC(=O)CCNC(=O)[C@H](O)C(C)(C)COP(=O)(O)OP(=O)(O)OC[C@H]1O[C@@H](n2cnc3c(N)ncnc32)[C@H](O)[C@@H]1OP(=O)(O)O; pH 7.5, 25 °C, apparent, poor fit): 300000 M⁻¹ s⁻¹

enzyme (UniProt A0A7J5BGR1)
kcat/Km (Oc1ccc2c(c1)CCC2; pH 8, 25 °C): 5400 M⁻¹ s⁻¹

B1 (protein)
kcat/Km (C[C@@H](O)CC(=O)SCCNC(=O)CCNC(=O)[C@H](O)C(C)(C)COP(=O)(O)OP(=O)(O)OC[C@H]1O[C@@H](n2cnc3c(N)ncnc32)[C@H](O)[C@@H]1OP(=O)(O)O; pH 7.8, 30 °C): 4.62e+06 M⁻¹ s⁻¹

alanine aminopeptidase (Neisseria meningitidis, UniProt Q9JYV4)
kcat/Km (CC[C@H](N)C(=O)Nc1ccc2c(CC(N)=O)cc(=O)oc2c1; pH 7.5, 37 °C): 85000 ± 7000 M⁻¹ s⁻¹

BaiA1 (Clostridium scindens, UniProt P07914)
kcat/Km (NC(=O)c1ccc[n+]([C@@H]2O[C@H](COP(=O)(O)OP(=O)(O)OC[C@H]3O[C@@H](n4cnc5c(N)ncnc54)[C@H](OP(=O)(O)O)[C@@H]3O)[C@@H](O)[C@H]2O)c1; pH 8.7, 37 °C, cofactor varied, added: glycocholic acid 1.4 mM): 133 M⁻¹ s⁻¹

enzyme (Limosilactobacillus reuteri, UniProt Q5SBN3)
kcat/Km (OC[C@H]1O[C@@](CO)(O[C@H]2O[C@H](CO)[C@@H](O)[C@H](O)[C@H]2O)[C@@H](O)[C@@H]1O; pH 4.7, 37 °C): 100000 M⁻¹ s⁻¹

Pck1 (Rattus norvegicus, UniProt P07379)
kcat/Km (O=C(O)CC(=O)C(=O)O; pH 7.5, 25 °C, added: OAA, GTP): 1e+06 M⁻¹ s⁻¹

B2 (protein Y93P)
kcat/Km (Nc1ccn([C@@H]2O[C@H](CO)[C@@H](O)[C@H]2O)c(=O)n1; pH 7.2, 25 °C, KCl 100 mM, added: ATP 100–200 µM): 8300 M⁻¹ s⁻¹

B3 (cyc1)
kcat/Km (CC(C)=CCC/C(C)=C/CC/C(C)=C/CO[P@@](=O)(O)OP(=O)(O)O; pH 6.5, 30 °C, added: MgCl2 10 mM): 260000 ± 10000 M⁻¹ s⁻¹

Cop6 (Coprinopsis cinerea, UniProt A8NCK5)
kcat/Km (CC(C)=CCC/C(C)=C/CC/C(C)=C/CO[P@@](=O)(O)OP(=O)(O)O; pH 8, 30 °C, added: MgCl2 10 mM): 88000 M⁻¹ s⁻¹

B4 (POLH)
kcat/Km (Cc1cn([C@H]2C[C@H](O)[C@@H](COP(=O)(O)OP(=O)(O)OP(=O)(O)O)O2)c(=O)[nH]c1=O; pH 8, 37 °C, misinsertion opposite dT, added: Mg2+): 30 ± 1.67 M⁻¹ s⁻¹

ASRGL1 (Homo sapiens, UniProt Q7L266)
kcat/Km (COC(=O)C[C@H](N)C(=O)O; pH 7.4, 37 °C, NaCl 100 mM): 21000 ± 1000 M⁻¹ s⁻¹

B5 (Tcur_2987 W263F)
kcat/Km (Nc1c(S(=O)(=O)O)cc(Nc2cccc(S(=O)(=O)CCOS(=O)(=O)O)c2)c2c1C(=O)c1ccccc1C2=O; pH 3, sigmoidal kinetics, added: H2O2 1 mM): 1.5e+06 M⁻¹ s⁻¹

B6 (BshA Y95F)
kcat/Km (CC(=O)N[C@H]1[C@@H](OP(=O)(O)OP(=O)(O)OC[C@H]2O[C@@H](n3ccc(=O)[nH]c3=O)[C@H](O)[C@@H]2O)O[C@H](CO)[C@@H](O)[C@@H]1O; pH 7.5, 21 °C, added: malate 0–25 mM): 2600 M⁻¹ s⁻¹

Repeated from above:
enzyme (Limosilactobacillus reuteri, UniProt Q5SBN3)
kcat/Km (OC[C@H]1O[C@@](CO)(O[C@H]2O[C@H](CO)[C@@H](O)[C@H](O)[C@H]2O)[C@@H](O)[C@@H]1O; pH 4.7, 37 °C): 100000 M⁻¹ s⁻¹

BaiA1 (Clostridium scindens, UniProt P07914)
kcat/Km (NC(=O)c1ccc[n+]([C@@H]2O[C@H](COP(=O)(O)OP(=O)(O)OC[C@H]3O[C@@H](n4cnc5c(N)ncnc54)[C@H](OP(=O)(O)O)[C@@H]3O)[C@@H](O)[C@H]2O)c1; pH 8.7, 37 °C, cofactor varied, added: glycocholic acid 1.4 mM): 133 M⁻¹ s⁻¹
